Results collected from several papers.
Numbered parts are unrelated; each lists some results of a single study.

Series 1 — method: RNA Bind-n-Seq; molecule type: RNA; sample: in vitro; tested at: 1 µM; notes: whole 134-nt RNA, ends assumed; together with: 150 mM KCl; relative to: input library; direction: higher = stronger binding
Target: Ras GTPase-activating protein-binding protein 1, C-terminal RGG region (G3BP1, Homo sapiens, UniProt Q13283)
Chain of UniProt Q13283 (whole entry, looked up): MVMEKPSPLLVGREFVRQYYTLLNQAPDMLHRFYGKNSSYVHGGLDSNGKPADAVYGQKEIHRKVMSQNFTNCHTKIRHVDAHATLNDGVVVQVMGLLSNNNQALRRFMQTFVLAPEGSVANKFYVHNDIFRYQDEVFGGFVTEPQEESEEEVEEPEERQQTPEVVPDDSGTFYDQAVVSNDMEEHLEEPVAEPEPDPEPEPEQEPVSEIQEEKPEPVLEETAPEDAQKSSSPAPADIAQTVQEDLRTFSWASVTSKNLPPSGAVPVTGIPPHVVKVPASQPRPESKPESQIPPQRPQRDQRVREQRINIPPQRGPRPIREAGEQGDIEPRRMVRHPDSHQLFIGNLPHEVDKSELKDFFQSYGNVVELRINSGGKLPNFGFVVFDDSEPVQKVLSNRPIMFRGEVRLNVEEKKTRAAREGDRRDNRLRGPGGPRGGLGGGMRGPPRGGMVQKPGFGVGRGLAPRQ
Sequence	log2 enrichment
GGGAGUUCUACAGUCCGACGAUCUUGUCUACAGAACUAGACAGUACGGAUGGUGCCAAAGUUUUUAGUAAACAACCAGGAAGAAUCCAAAGAGUAGCAAGAGGAUCGGGUGUAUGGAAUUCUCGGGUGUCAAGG	-2.07
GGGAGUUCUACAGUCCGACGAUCGCAGGAAGUAAAAACAAAUGGACAUGCUUCGGAUAGUGGCAGGGGUGGGGGUUGCUAAGGAAAGGGUGGGAUGGGAGUGGGUAAAGAGUUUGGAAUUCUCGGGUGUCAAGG	2.57
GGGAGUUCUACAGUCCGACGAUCAAGUCCUGUGCUACACAUCGUAUGUACCGAAUCGGGGCCCCGGCCCCGGCCCCGGGGAAAGUAUUAUGUUACGCCGUUCGGAUCUGCACUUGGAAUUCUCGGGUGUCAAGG	-1.96
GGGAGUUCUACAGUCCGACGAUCAAGUCCUGUGCUACACAUCGUAUGUACCGAAUCGGCCCCCGGCCCCCGGGCCCCCGGAAAGUAUUAUGUUACGCCGUUCGGAUCUGCACUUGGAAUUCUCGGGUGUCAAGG	-1.28
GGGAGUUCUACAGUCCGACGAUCAGUCCUGUGCUACACAUCGUAUGUACCGAAUCGGGUUUUGGGGUUUUGGGUUUUGGGAAAGUAUUAUGUUACGCCGUUCGGAUCUGCACUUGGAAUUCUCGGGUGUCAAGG	1.12
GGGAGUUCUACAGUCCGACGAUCCUGUGCUACACAUCGUAUGUACCGAAUCGGGGUUUUUUUGGUUUUUUUGGGGUUUUUUUGGAAAGUAUUAUGUUACGCCGUUCGGAUCUGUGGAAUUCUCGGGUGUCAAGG	-1.2
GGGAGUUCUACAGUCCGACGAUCUCAAGUCCUGUGCUACACAUCGUAUGUACCGAAUCGGUUUGGGGUUUGGGUUUGGAAAGUAUUAUGUUACGCCGUUCGGAUCUGCACUUCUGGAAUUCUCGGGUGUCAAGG	-0.868
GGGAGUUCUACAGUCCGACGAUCAGUCCUGUGCUACACAUCGUAUGUACCGAAUCGGGGAAAAAAAGGGGAGGGGUGGGGAAAGUAUUAUGUUACGCCGUUCGGAUCUGCACUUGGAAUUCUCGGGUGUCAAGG	1.82
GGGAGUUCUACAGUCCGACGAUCUGCAGCUGCUGGCCGCCUCCUAUGACCUGCACCGCUACUUCUACACGGGUGCCGAGAUCCUGGGCCUCAUCGACGAGAAGCACCGCGAGCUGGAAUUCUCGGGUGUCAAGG	-0.349
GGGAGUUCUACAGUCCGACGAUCGCAGGAAGUAAAAACAAAUGGAAAUGCUUCGGAUAGUGGCAGGGGUGGAAAUUGCUAAGGAAAGGGUGGGAUGGGAGUGGGUAAAGAGUUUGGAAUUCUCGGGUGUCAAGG	1.59

Series 2 — method: universal PBM; molecule type: double-stranded DNA, one strand shown; sample: in vitro; tested at: 600 nM; direction: higher = stronger binding
Target: Sal-like protein 4, full length isoform A (SALL4, Homo sapiens, UniProt Q9UJQ4, residues 1-1053)
Chain of UniProt Q9UJQ4 (whole entry, looked up): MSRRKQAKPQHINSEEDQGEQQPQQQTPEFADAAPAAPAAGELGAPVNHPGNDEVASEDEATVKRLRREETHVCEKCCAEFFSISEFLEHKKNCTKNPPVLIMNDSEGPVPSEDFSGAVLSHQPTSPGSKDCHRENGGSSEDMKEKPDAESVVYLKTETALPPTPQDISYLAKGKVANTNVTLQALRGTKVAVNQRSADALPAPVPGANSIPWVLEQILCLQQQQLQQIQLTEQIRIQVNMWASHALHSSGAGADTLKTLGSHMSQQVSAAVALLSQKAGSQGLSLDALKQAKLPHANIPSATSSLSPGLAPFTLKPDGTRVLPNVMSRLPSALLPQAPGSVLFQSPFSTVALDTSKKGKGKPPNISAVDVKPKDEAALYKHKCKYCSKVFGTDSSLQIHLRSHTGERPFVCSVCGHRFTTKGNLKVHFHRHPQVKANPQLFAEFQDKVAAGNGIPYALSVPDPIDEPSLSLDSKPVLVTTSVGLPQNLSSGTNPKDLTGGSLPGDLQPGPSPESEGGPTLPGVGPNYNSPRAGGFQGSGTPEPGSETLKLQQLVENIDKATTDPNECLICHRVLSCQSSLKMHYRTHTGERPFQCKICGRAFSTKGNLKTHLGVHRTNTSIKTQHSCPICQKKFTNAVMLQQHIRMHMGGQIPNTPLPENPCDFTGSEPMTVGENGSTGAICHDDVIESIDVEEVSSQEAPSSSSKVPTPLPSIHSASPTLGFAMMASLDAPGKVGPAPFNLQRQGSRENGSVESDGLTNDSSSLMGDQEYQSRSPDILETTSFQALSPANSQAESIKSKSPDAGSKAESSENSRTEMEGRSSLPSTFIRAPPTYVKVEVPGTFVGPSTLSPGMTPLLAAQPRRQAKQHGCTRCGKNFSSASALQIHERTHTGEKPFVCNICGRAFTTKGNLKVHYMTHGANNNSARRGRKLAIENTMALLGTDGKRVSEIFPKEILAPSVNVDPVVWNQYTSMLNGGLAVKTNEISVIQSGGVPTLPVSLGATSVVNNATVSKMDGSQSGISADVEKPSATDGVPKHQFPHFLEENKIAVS
Notes: 8-mer, flanks averaged, mean of replicates
Sequence	E-score
TGGACCAA	-0.00299
CCCTCCAA	-0.239
CGTTGAAA	-0.023
AATCGATA	0.2
ACACGGAG	-0.0435
GTGTAACA	0.115
AACGGAGT	0.00643
ACGGATAG	-0.1
GCAGCAAC	-0.0955
CGGTCTAA	0.0435
AAACGTAA	0.282
CACACTTA	0.154
ACACCTGA	-0.0321
GCCCGGGC	-0.258
CCTCCGAG	-0.289
AATTTGGT	0.196
GCGATGAA	0.017
GTGTGGTA	-0.0714
GGTATGAC	-0.104
AACCAATT	0.164
ATTATTAA	0.442
AGGTATAC	0.105
ATAGGGGC	-0.153

Series 3 — method: protein binding microarray; molecule type: double-stranded DNA, one strand shown; sample: in vitro; tested at: not given; relative to: not given; direction: higher = stronger binding
Target: Histone acetyltransferase KAT6A, winged helix 2, GST fusion (KAT6A, Homo sapiens, UniProt Q92794, residues 85-181)
Notes: 8-mer, flanks averaged, mean of 2 arrays, mostly near background
Residues (chain): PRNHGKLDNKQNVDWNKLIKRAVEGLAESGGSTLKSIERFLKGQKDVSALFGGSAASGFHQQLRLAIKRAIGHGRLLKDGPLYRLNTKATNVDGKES
Sequence	E-score
AGTGAACC	-0.0441
CTCGAGAC	0.0878
CACCTATC	-0.186
CACTTATG	-0.0774
CCATAGCA	-0.112
GGATTATA	-0.106
AAGCCGTG	0.0445
AACCTGGT	0.0745
CATCCCTC	0.057
CTGGGACC	0.0181
CCACTACA	-0.235
GCGGGCAA	0.155
CATATGCA	0.0436
CGAAACGC	0.0206
ACACGGTG	-0.0202
AACTGCTG	0.0819
GTGAGAAC	0.0402
TATTTAAA	0.00681
AGTCTCTC	-0.172
GATGTCCA	0.101
ACGCGTTC	0.0665
ACGTAGTC	-0.13
AACAAGCA	-0.0311
ATAACTCA	-0.101
ACACCAGT	-0.143

Series 4 — method: RNA Bind-n-Seq; molecule type: RNA; sample: in vitro; tested at: 365 nM; relative to: no-protein control; direction: higher = stronger binding
Target: RNA binding protein fox-1 homolog 2, RRM domain, GST-SBP tag (RBFOX2, Homo sapiens, UniProt O43251-10, residues 100-194)
Notes: natural RNA segment, single round, ends assumed
Sequence	RBNS enrichment (R)
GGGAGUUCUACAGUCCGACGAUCAAAACGUCAGCCUCUGCCCCACCCUCCCUCCUGCCCAAAGUGAAUUUGGUACUCAGAAAAGAACUGUUUAUACCACUCACCUUUCUCCCAGCAUGUACUCACUGUGGGCAUGGAAUUCUCGGGUGCCAA	5.39
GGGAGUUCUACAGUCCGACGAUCCCAAAUUGUAUCAAGCAAAAAAUGUAUGGCUAGACAACACCAGUAAGAAUCCUGCUGCUCUGGGGGAGGCGGAAGGAGAGCUGGAAAGUCUGGAGUAUCGCUCCGUUCCCUGGAAUUCUCGGGUGCCAA	1.13
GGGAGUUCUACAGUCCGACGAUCAUUUGAAAUAAUGCUGUCUGAAUGGCCAACAUCCCAAGAAUGUAUUAAAAACAGCAACCCUGCCUACCGUUUUGAUGACCUUUUUCCAUAUUAAACAAGUUGAGAACAAAUGGAAUUCUCGGGUGCCAA	0.79
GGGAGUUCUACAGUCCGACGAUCAAUUGUUGUUGUGUGUACAUUUGAUUUUCAUAAAGAUGGUAGUAAGUCAAUGCAUUAACCCUCAUCUGUGUAUUAUUUGUUCACAAGUUCCAGAGGUUGAAGGACUGACUUGGAAUUCUCGGGUGCCAA	0.463
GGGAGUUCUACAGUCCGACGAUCGAUUUUUCUAAGAUGUUGAGUAUUGUGUAAGUAAGCUUUGAGUCUUUGAACCUGAUUGAAAUGCAAAGCAAGGGUGACUCAUUGUUAGGAGAAGUAAAGGCCACGGAAGGUGGAAUUCUCGGGUGCCAA	3.43
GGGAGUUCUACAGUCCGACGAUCAGUAUUCUGUCAUCGAAGAGACCAGCUCGGACACAGAUGAAAGCAUCAUCACCUGCUCCACUCUCAAUAUGGCUUUUAUCAGCAUCUUUUCUCUGUAGCUCCAGGGGAAUUGGAAUUCUCGGGUGCCAA	0.892
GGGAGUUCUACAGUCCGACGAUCUCUAAGUUAACAGUCUCCUAAAGUGACCACCUACAUUUCUUAUAAUCCAGGUAGUUCCUGUCAUGUCCACACACACAUGGAUUGUAGUGAUCCAAUUGCCCCAGUCUCCCUGGAAUUCUCGGGUGCCAA	0.386
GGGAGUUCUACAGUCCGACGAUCCCUCUUCCCGUCACAAUCAACUUUGGAUUCUGUAUUUUUUUAUAAUAAAAUGAGCAUAAACCUCAAACGCGUGUGUCUGUAUGUGGGGGCCUUGCCCUACUUGAAGGAGAUGGAAUUCUCGGGUGCCAA	0.542
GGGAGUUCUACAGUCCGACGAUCACCCAUCCAGAACCACGUGCACGAGUUUUUACCUAGCUGGUUGUUUCCGAGGACCAGGCACUCGAUCCUGUCUCUGUGAGAAUGUAUACUUUAUGCUCUCUGAAAUAUAUUGGAAUUCUCGGGUGCCAA	8.1
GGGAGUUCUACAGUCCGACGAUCGAAAGGGACCCCUCUCCAGUCCUGGCUCCUUCCUACAUCCUGGGCUCCUGAAGAAGCUGUCUUCCCAUUUUCCAUGCGCUGUGCUUAUGUGUGGUGGACUGCAGAGCUGCUGGAAUUCUCGGGUGCCAA	0.844
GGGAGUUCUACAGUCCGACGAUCCACAGUGCGUUCCAUAUUGUGAUAAGGUAACGUGAGGUUUUUUUGUUUUGUUUUGUUUUCUUUUUUUUUUUUCUGAGCUAGCCUUUAGAACACUGUUGUGGUAUGUAUGCUGGAAUUCUCGGGUGCCAA	5.03
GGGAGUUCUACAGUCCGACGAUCUGUGUGGGGCUGAAGCGGCUUCUUUCCGCUGAACUUUUAUUUCCAUUUCAGCCUCGUGGCUUCUCUUAUUCAGGUCCAAGGCCCCUUAAAAACAAAACAUAUUAUCGCAAUGGAAUUCUCGGGUGCCAA	0.566

For quick reference, copied from above (series 3):
Sequence	E-score
GTGAGAAC	0.0402
ACACCAGT	-0.143
AACAAGCA	-0.0311
GCGGGCAA	0.155
AACCTGGT	0.0745
CCATAGCA	-0.112
CACTTATG	-0.0774
CCACTACA	-0.235
ACGTAGTC	-0.13
ATAACTCA	-0.101
